Measured values pooled from the literature.
Numbers after ± are the reported error.

Chains of the proteins cited; added tags and fusions are not shown. Residues count along the entry.
UniProt P54292, whole entry: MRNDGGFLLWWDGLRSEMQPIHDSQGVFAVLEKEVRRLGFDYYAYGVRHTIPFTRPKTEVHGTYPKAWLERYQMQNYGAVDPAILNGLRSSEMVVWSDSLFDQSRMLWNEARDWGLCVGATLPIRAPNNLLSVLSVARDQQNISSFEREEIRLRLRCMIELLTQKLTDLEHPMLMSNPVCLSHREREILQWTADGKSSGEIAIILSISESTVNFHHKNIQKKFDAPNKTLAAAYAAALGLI
UniProt Q8NER1, whole entry: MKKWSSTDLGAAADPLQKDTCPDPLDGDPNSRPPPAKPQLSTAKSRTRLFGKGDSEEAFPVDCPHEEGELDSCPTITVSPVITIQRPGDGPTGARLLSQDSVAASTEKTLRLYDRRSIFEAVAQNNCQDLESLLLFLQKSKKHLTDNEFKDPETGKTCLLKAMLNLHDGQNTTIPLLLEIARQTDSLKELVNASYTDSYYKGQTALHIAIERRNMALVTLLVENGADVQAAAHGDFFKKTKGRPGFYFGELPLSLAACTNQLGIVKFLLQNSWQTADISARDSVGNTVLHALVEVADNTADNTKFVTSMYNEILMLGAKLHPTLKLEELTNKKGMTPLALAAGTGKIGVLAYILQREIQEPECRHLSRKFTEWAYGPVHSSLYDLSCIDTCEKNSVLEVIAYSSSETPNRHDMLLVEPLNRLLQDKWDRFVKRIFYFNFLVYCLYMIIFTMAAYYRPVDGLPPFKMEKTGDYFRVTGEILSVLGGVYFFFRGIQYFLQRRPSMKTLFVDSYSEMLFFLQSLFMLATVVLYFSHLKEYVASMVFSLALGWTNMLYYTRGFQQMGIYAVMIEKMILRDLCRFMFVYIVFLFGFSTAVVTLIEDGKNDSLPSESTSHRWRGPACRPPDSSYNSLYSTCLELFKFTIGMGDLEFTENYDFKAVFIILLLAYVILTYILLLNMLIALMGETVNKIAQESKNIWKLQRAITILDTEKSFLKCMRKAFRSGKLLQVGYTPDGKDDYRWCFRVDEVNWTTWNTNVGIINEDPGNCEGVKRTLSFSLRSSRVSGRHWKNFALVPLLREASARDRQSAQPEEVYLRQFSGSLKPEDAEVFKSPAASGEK
UniProt Q9Y5Y6, 615-854 limits assumed: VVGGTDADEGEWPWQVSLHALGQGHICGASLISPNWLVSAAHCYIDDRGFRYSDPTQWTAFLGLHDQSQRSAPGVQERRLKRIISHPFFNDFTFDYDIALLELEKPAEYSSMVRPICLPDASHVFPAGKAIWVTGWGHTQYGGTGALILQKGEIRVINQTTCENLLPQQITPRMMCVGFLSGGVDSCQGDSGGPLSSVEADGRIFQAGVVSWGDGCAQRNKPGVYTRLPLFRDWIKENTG
UniProt Q2UCU3, 19-1005 limits assumed: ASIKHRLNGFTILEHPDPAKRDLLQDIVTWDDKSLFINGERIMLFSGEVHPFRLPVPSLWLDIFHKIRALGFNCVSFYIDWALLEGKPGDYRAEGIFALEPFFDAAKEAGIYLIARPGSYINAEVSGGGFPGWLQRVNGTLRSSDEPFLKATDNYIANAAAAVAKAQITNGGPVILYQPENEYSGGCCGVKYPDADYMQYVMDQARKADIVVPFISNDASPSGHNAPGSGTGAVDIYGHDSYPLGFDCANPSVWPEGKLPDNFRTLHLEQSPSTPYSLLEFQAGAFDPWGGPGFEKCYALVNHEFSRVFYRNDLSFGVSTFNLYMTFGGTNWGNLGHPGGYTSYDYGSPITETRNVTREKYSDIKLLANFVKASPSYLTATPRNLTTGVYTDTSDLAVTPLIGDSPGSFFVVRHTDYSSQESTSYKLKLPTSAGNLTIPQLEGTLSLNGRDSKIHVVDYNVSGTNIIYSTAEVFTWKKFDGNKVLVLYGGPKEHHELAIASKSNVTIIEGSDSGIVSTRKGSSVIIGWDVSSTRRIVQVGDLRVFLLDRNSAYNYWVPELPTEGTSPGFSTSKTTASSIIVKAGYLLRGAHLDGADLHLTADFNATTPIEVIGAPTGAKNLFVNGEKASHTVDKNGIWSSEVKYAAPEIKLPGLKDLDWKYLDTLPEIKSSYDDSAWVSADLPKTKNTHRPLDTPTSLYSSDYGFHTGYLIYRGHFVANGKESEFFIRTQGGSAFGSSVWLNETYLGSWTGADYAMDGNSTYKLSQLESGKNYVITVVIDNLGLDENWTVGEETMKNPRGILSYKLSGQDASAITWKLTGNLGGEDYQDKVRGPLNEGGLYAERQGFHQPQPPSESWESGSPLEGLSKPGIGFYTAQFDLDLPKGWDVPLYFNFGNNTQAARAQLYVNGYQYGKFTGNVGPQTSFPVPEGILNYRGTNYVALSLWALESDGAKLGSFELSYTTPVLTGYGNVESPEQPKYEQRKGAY
UniProt P09884, whole entry: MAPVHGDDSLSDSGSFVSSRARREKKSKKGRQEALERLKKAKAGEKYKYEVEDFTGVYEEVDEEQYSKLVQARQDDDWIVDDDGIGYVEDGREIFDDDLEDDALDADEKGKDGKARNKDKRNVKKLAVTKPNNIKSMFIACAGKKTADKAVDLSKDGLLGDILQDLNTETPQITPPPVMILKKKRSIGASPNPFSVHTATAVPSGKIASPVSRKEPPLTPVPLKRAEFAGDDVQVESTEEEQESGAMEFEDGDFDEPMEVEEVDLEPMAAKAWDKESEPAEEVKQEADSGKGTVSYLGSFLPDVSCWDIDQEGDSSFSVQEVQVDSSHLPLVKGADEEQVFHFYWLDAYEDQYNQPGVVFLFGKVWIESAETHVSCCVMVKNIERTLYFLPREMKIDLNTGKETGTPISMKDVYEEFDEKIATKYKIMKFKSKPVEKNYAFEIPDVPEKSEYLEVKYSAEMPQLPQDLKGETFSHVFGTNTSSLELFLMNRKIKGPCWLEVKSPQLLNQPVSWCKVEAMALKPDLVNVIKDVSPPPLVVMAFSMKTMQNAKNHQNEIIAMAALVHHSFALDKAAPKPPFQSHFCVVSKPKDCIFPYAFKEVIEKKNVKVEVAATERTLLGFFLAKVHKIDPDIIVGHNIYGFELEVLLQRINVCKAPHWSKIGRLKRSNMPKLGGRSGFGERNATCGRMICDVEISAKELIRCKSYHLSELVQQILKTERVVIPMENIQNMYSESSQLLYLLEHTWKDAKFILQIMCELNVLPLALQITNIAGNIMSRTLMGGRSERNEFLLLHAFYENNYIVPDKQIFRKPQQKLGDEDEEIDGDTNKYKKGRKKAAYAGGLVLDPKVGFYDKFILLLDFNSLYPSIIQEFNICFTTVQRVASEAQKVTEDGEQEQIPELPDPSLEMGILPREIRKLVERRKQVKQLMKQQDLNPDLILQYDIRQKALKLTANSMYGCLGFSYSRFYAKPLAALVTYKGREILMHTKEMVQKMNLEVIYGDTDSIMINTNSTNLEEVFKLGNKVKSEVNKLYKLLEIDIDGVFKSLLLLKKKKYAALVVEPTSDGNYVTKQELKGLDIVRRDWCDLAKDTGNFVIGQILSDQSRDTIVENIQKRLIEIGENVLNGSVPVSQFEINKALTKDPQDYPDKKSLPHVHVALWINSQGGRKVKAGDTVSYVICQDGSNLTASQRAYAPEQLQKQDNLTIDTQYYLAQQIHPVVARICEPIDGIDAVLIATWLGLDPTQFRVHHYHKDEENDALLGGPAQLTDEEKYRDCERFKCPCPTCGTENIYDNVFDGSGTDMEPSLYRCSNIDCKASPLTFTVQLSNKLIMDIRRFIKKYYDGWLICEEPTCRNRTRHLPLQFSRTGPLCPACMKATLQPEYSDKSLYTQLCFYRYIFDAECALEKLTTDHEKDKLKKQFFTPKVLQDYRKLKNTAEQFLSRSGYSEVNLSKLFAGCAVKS
UniProt P10959, 19-549 limits assumed: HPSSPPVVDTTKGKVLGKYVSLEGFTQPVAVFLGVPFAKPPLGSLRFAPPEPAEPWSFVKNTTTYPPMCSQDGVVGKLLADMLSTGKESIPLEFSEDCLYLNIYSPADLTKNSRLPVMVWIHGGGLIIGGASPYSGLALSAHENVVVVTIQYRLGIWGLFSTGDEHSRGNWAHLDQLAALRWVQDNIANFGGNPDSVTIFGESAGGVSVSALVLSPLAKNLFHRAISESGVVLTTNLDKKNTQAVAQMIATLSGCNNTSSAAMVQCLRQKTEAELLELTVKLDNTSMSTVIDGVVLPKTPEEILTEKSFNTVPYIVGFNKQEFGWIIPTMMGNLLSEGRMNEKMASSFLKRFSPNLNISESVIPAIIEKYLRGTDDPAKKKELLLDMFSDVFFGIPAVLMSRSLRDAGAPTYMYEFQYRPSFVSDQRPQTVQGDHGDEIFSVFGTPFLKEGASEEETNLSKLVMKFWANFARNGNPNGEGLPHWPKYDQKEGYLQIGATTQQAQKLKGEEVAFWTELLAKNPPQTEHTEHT
UniProt P0DKX7, 1-373 limits assumed: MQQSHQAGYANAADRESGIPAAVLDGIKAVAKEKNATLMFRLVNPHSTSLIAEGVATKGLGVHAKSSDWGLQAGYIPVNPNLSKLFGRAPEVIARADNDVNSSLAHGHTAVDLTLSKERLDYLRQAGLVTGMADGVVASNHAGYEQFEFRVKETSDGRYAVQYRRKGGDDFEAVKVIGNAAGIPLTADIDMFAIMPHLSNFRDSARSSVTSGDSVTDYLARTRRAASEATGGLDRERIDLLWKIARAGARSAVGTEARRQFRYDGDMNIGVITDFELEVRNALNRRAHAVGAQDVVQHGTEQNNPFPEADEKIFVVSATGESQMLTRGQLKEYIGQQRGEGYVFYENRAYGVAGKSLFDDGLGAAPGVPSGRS
UniProt P30926, 22-498 limits assumed: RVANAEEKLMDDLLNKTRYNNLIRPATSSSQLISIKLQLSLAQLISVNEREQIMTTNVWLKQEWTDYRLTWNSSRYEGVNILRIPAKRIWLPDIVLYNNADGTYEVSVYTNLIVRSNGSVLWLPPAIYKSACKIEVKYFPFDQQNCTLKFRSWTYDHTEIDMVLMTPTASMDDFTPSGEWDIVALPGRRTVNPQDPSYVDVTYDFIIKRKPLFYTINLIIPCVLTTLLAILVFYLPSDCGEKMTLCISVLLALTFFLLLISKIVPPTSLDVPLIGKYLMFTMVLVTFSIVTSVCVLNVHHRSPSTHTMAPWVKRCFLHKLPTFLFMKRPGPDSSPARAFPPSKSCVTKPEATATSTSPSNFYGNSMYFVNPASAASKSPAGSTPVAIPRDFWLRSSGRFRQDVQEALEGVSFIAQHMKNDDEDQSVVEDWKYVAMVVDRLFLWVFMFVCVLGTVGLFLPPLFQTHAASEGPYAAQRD
UniProt Q15822, 27-529 limits assumed: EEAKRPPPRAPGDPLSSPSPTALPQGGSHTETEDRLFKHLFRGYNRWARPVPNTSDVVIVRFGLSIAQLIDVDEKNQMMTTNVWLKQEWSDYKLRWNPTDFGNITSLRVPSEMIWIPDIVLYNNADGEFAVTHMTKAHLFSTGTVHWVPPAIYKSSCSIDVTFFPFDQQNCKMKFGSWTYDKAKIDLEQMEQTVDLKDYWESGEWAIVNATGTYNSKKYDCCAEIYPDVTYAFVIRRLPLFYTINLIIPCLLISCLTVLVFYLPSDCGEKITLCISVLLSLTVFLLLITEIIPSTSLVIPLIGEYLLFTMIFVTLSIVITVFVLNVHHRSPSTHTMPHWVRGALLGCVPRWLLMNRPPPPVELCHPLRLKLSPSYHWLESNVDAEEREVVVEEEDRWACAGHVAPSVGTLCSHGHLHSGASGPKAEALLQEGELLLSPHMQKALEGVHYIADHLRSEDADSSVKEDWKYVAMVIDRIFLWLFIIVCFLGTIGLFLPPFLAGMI
UniProt H0V073, 1-176: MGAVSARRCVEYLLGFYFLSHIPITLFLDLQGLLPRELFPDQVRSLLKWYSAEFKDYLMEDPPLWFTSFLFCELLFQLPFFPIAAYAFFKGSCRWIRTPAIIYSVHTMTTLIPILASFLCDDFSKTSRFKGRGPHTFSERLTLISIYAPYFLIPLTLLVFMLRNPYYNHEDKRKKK

Compound	tested on	test	test system	setting	endpoint	result
CCOC(=O)c1c(-c2ccc(Cl)cc2Cl)n(-c2nc(-c3ccc(Cl)cc3)c3c(NC(=O)c4ccccc4)nnc-3[nH]2)[nH]c1=O	MDA-MB-435	SRB	–	–	CC50	9910 nM
O=C(N[C@H]1CCOC1=O)C1CCCC1	rhlR (Pseudomonas aeruginosa, UniProt P54292)	reporter gene, agonist, rhlI-lacZ reporter	Escherichia coli reporter strain	–	EC50	1580 nM
COc1ccc(S(=O)(=O)N(CC(C)C)C[C@@H](O)[C@H](Cc2ccccc2)NC(=O)O[C@@H]2C[C@@H]3CO[C@@H]4O[C@H]2C[C@H]34)cc1	Gag-Pol polyprotein, protease (gag-pol, Human immunodeficiency virus type 1 group M subtype B, UniProt P04585)	enzyme activity, inhibitor	–	–	Ki	0.008 nM
CCOc1ccc(C2C(C#N)=C(N)Oc3c2c(C)nn3-c2ccc(Cl)cc2)cc1 (stereo not drawn)	Vero E6	MTT	–	100 µM	viability	37.9%
N#Cc1c(-c2ccc(Cl)cc2Cl)n(-c2nc(-c3ccc(Cl)cc3)c3c(NC(=O)c4ccccc4)nnc-3[nH]2)[nH]c1=O	SW-620	SRB	–	–	CC50	> 100000 nM
Cc1nn(-c2ccc(Cl)cc2)c2c1C(c1ccc(O)cc1)C(C#N)=C(N)O2 (stereo not drawn)	Vero E6	–	–	0.4 µM	viability	84.4%
CCCCC(CCCC)Oc1nc(C(F)(F)F)ccc1CNC(=O)C(C)c1ccc(NS(C)(=O)=O)c(F)c1 (stereo not drawn)	TRPV1 (Homo sapiens, UniProt Q8NER1)	ion current, antagonist, FLIPR	CHO cells expressing TRPV1	with: capsaicin	Ki	0.5 nM
N=C(N)c1ccc(C(NC(=O)COCC(=O)NCCCOCCOCCOCCCNC(=O)CCCC[C@@H]2SC[C@@H]3NC(=O)N[C@@H]32)P(=O)(Oc2ccccc2)Oc2ccccc2)cc1 (stereo partly drawn)	ST14 (Homo sapiens, UniProt Q9Y5Y6)	enzyme activity, inhibitor, fluorogenic substrate	–	4 h preincubation, pH 8.0, with: 0.2 nM enzyme, spectrafluor-tPA substrate	IC50	3500 ± 600 nM
OC[C@H]1NC(=NCCCc2ccccc2)[C@H](O)[C@@H](O)[C@H]1O	lacA (Aspergillus oryzae, UniProt Q2UCU3)	inhibitor, nitrophenyl galactoside hydrolysis	–	pH 5.00, with: substrate 2d	Ki	11.8 nM
Cc1cn([C@@H]2CC[C@H](OC(C(=O)O)P(=O)(O)O)C2)c(=O)[nH]c1=O (relative stereo)	POLA1 (Homo sapiens, UniProt P09884)	enzyme activity, inhibitor	–	with: activated calf thymus DNA	IC50	229000 ± 27000 nM
COP(=O)(OC)Oc1ccc([N+](=O)[O-])cc1Cl	Carboxylesterase 1C (Ces1c, Rattus norvegicus, UniProt P10959)	enzyme activity, inhibitor	rat, postnatal day 12, rat serum	with: p-nitrophenyl valerate	IC50	61 nM
CNc1ccccc1C(=O)O[C@H]1[C@@H](O)[C@H](n2ccc(N)nc2=O)O[C@@H]1COP(=O)(O)OP(=O)(O)OP(=O)(O)O	cya, adenylate cyclase domain (Bordetella pertussis, UniProt P0DKX7)	inhibitor	–	–	Ki	1300 ± 100 nM
NCCCCCC(=O)Nc1nnc(S(N)(=O)=O)s1	Enterococcus faecium gamma-carbonic anhydrase	CO2 hydration, inhibitor, stopped-flow kinetics	–	–	Ki	60.4 nM
CC[C@H](C)[C@@H]1NC(=O)[C@H](CCC(=O)O)NC(=O)[C@@H]2CCCN2C(=O)[C@H](Cc2c[nH]cn2)NC(=O)[C@H](CCCNC(=N)N)NC(=O)[C@H](C(C)C)NC(=O)[C@H](CC(N)=O)NC(=O)[C@@H]2CSSC[C@H](NC(=O)CN)C(=O)N[C@@H](CSSC[C@@H](C(N)=O)NC1=O)C(=O)N[C@@H](CO)C(=O)N[C@@H](Cc1c[nH]cn1)C(=O)N1CCC[C@H]1C(=O)N[C@@H](C(C)C)C(=O)N2	Neuronal acetylcholine receptor; alpha2/beta4 (Homo sapiens, UniProt P30926+Q15822)	ion current, antagonist, two-electrode voltage clamp	Xenopus oocytes	human, with: ACh 300 µM	IC50	> 10000 nM
COc1ccc(CCN(C)CCCCNC(=O)c2cc(Br)cc(OC)c2OC)cc1OC	Sigma-2 receptor (Cavia porcellus, UniProt H0V073)	binding	brain membranes	(+)-pentazocine masking, with: [3H]DTG 500 nM	Ki	2130 ± 240 nM

Repeated from above:
Compound	tested on	test	test system	setting	endpoint	result
CCOC(=O)c1c(-c2ccc(Cl)cc2Cl)n(-c2nc(-c3ccc(Cl)cc3)c3c(NC(=O)c4ccccc4)nnc-3[nH]2)[nH]c1=O	MDA-MB-435	SRB	–	–	CC50	9910 nM
O=C(N[C@H]1CCOC1=O)C1CCCC1	rhlR (Pseudomonas aeruginosa, UniProt P54292)	reporter gene, agonist, rhlI-lacZ reporter	Escherichia coli reporter strain	–	EC50	1580 nM
